Experimental data gathered from unrelated publications.
Lines come from different studies, so protocols differ. ± marks the error that the study gave.

The IC50 of `COc1cncc(-c2cc(F)cc(CNC(=O)c3cc(N4CC[C@@](C#N)(C5CC5)C4=O)cc(C)n3)c2)c1` is reported as 250 nM (Plasmodium falciparum; parasite growth; conditional knockdown control line; 120 h, with: 12.5 nM anhydrotetracycline).
With `COCCN(C)CC(=O)NC(Cc1ccc(-c2ccccc2)cc1)B(O)O` (stereo not shown) the IC50 was 150 nM (Plasmodium berghei; hepatic merozoite formation; HepG2, liver stage; 72 h).
With `COc1cccc2c(-c3ccc4c(c3O)[C@@H](C)N[C@H](C)C4)c(CO)cc(OC)c12` the IC50 was 4.6 ± 0.53 nM (Plasmodium falciparum; asexual parasite proliferation, SYBR Green I fluorescence; clinical isolate SB_05, Mozambique).
`Cc1cc(N2CC[C@@](C#N)(C3CC3)C2=O)cc(NC(=O)Cc2ccccc2)n1` gave an IC50 of 3 nM (Plasmodium falciparum; parasite growth; cPRS conditional knockdown line; 72 h, with: 3 nM anhydrotetracycline).
`COc1cc2c(c(OC)c1)C(C)=[N+](c1ccc(OC)c3c(OC)cc(C)cc13)[C@@H](C)C2` gave an IC50 of 416 ± 62 nM (Plasmodium falciparum; asexual parasite proliferation, SYBR Green I fluorescence; HB3).
For `Cc1ccc(-c2nc(N)c3c(Nc4ccc(Cl)cc4)n[nH]c3n2)cc1`, the IC50 was 40 nM (rhinovirus B42; viral cytopathic effect; HeLa).
The IC50 of `CSCC[C@@H](N)C(=O)N[C@@H](CC(C)C)C(=O)N[C@@H](CCCNC(=N)N)C(=O)N[C@@H](Cc1c[nH]c2ccccc12)C(=O)N[C@@H](CO)C(=O)N[C@@H](CCCNC(=N)N)C(=O)N[C@@H](CCCCN)C(=O)N[C@@H](CCSC)C(=O)N1CCC[C@H]1C(=O)N[C@@H](CS)C(=O)N[C@H](C(=O)N[C@@H](CO)C(=O)O)C(C)C` is reported as 489 nM (Human immunodeficiency virus 1; viral replication, inhibitor; TZM-bl).
The IC50 of `COC1C=COC2(C)Oc3c(C)c(O)c4c(c3C2=O)C2=NC3(CCN(CC(C)C)CC3)NC2=C(NC(=O)C(C)=CC=CC(C)C(O)C(C)C(O)C(C)C(OC(=O)Nc2cnccn2)C1C)C4=O` (stereo not shown) is reported as 25 nM (Mycobacteroides abscessus; intracellular growth, Hill fit; THP-1 derived macrophages, ATCC 19977).
`Cc1cc(N2CCC(CO)(C3CC3)C2=O)cc(C(=O)NCc2cc(F)cc(-c3cnn(C)c3)c2)n1` (stereo not shown) has an IC50 of 50 nM (Plasmodium falciparum; parasite growth; cPRS conditional knockdown line; 72 h, with: 50 nM anhydrotetracycline).
For `COc1ccc(Nc2n[nH]c3nc(-c4ccccc4)nc(N)c23)cc1OC`, the IC50 was 850 nM (rhinovirus B42; viral cytopathic effect; HeLa).
For `O=C(CCCCCONC(=O)c1nc(-c2ccc(O)cc2)cs1)NO`, the IC50 was 24 nM (Plasmodium berghei; parasite growth, bioluminescence; HC04, ANKA GFP-Luc, liver stage).
With `Nc1nc(-c2ccccc2)nc2[nH]nc(Nc3ccc([N+](=O)[O-])cc3)c12` the IC50 was 40 nM (rhinovirus B42; viral cytopathic effect; HeLa).
For `COc1cccc2c(-c3ccc(O)c4c3CC(C)(C)N=C4)ccc(OC(C)C)c12`, the IC50 was 208 ± 31 nM (Plasmodium falciparum; asexual parasite proliferation, SYBR Green I fluorescence; Dd2).
With `Nc1nc(-c2ccccc2)nc2[nH]nc(Nc3cccc(C(F)(F)F)c3)c12` the IC50 was 10 nM (coxsackievirus B3; viral cytopathic effect; HeLa).
With `COc1cc(O)c(-c2cc(-c3cc(-c4c(O)cc(OC)c5c4C[C@@H](C)N[C@@H]5C)c4cc(C)cc(OC)c4c3O)c(O)c3c(OC)cc(C)cc23)c2c1[C@@H](C)N[C@H](C)C2` the IC50 was 49 ± 2.2 nM (Plasmodium falciparum; asexual parasite proliferation, SYBR Green I fluorescence; clinical isolate SB_05, Mozambique).
`N#Cc1ccc(Nc2n[nH]c3nc(-c4ccccc4)nc(N)c23)cc1` gave an IC50 of 160 nM (rhinovirus B42; viral cytopathic effect; HeLa).
For `Oc1ccc(-c2ccc(O)c3ccccc23)c2c1C=NCC2`, the IC50 was 1140 ± 140 nM (Plasmodium falciparum; asexual parasite proliferation, SYBR Green I fluorescence; HB3).
With `Cc1ccc(Nc2n[nH]c3nc(-c4cccc(F)c4)nc(N)c23)cc1` the IC50 was 18700 nM (coxsackievirus B3; viral cytopathic effect; HeLa).
The IC50 of `COc1cc(O)c(-c2cc(-c3cc(-c4c(O)cc5c(c4OC)[C@H](C)N[C@H](C)C5)c4cc(C)cc(OC)c4c3O)c(O)c3c(OC)cc(C)cc23)c2c1[C@H](C)N[C@H](C)C2` is reported as 96 ± 14 nM (Plasmodium falciparum; asexual parasite proliferation, SYBR Green I fluorescence; 7G8).
For `CNCc1ccc2c(c1)C[C@H](CNC(=N)N)[C@H]2NC(=O)C(=O)Nc1ccc(Cl)c(F)c1`, the IC50 was over 100000 nM (Human immunodeficiency virus 1; viral infection, Env pseudovirus; TZM-bl, C2101.c01 CRF01_AE).
For `Nc1nc(-c2ccccc2)nc2[nH]nc(Nc3ccc(F)c(F)c3F)c12`, the IC50 was 10 nM (rhinovirus B42; viral cytopathic effect; HeLa).
`CC1=N[C@H](C)Cc2c(-c3ccc(C)cc3)ccc(O)c21` has an IC50 of 923 ± 37 nM (Plasmodium falciparum; asexual parasite proliferation, SYBR Green I fluorescence; clinical isolate SB_05, Mozambique).
